Measured values of several laboratories.
Each line is one published result; not all experiments were run side by side. Values joined by “and” are separate records of one study, mostly repeats; a detail may differ. ± marks the error that the study gave. Values after ≈ are worked out from the molar mass of the structure shown.

For `CC(C)(O)c1ncc([S@](N)(=O)=NC(=O)Nc2c3c(cc4c2CCC4)CCC3)s1`, “subjects with TEAEs” read 14% (refers to: reproductive, breast disorders; healthy human; oral, 200 mg, 14 days, SDD formulation, once daily).
`COc1cc(N2CCN(C(=O)C3CCCN3)CC2)ccc1Nc1ncc(Cl)c(Nc2ccccc2P(C)(C)=O)n1` (stereo not drawn) has a body weight of 23.9 g and 26.6 g and 22.8 g and 22.5 g and 22.1 g (nude mice, NCI-H3122 xenograft; intraperitoneal, 10 mg/kg every other day, day 1).
For `CC(C)[C@H](NC(=O)[C@H](Cc1c[nH]c2ccccc12)NC(=O)[C@H](CCCNC(=N)N)NC(=O)[C@H](CCCNC(=N)N)NC(=O)[C@@H](NC(=O)[C@@H](NC(=O)[C@H](CCCNC(=N)N)NC(=O)[C@@H](NC(=O)[C@@H](NC(=O)[C@H](CCCNC(=N)N)NC(=O)[C@H](CCCNC(=N)N)NC(=O)[C@@H](NC(=O)[C@H](Cc1c[nH]c2ccccc12)NC(=O)[C@H](CCCNC(=N)N)NC(=O)[C@H](CCCNC(=N)N)NC(=O)[C@@H](NC(=O)[C@H](CCCNC(=N)N)NC(=O)[C@H](CCCNC(=N)N)NC(=O)[C@@H](NC(=O)[C@H](Cc1c[nH]c2ccccc12)NC(=O)[C@H](CCCNC(=N)N)NC(=O)[C@@H](N)CCCNC(=N)N)C(C)C)C(C)C)C(C)C)C(C)C)C(C)C)C(C)C)C(C)C)C(=O)N[C@@H](CCCNC(=N)N)C(=O)N[C@@H](CCCNC(=N)N)C(=O)O`, the anion gap was 39.7 mEq/L (CD1 mouse, plasma; intravenous, 15 mg/kg, 24 h, [14C]-labelled compound).
`COC1CN([C@H]2CC[C@H]([C@@]3(C)Oc4c(Cl)cc(C(=O)NCc5c(SC)cc(C)[nH]c5=O)c(C)c4O3)CC2)C1` — result for “log2 fold change”: 1.75 (RNA-seq, refers to: TREM2; human, whole blood; dose not given, 24 h; reference: pretreatment baseline).
`COc1ccc2c(c1)CCn1c[n+]3c(c1-2)-c1ccc(OC)cc1CC3`: “mean platelet volume” 5.24 ± 0.48 fL (female NSG mice, blood; 6 mg/kg, day 14, 5 days per week).
For `CC(C)CCCC(C)C1CCC2C3CC=C4CC(OC(=O)CCC(=O)NCCCOCCOCCOCCCNC(=O)c5ccc(C(=O)O)c(-c6c7ccc(=O)cc-7oc7cc(O)ccc67)c5)CCC4(C)C3CCC12C` (stereo not drawn), the hydrodynamic radius was 0.79 nm (fluorescence correlation spectroscopy; water; 36 °C).
The Tmax of `CC(C)c1cnc(-c2cc(Cl)ccc2F)cc1Nc1ccncc1C(=O)NC(CO)CO` is reported as 3 h (female C57BL/6 mice, plasma; oral, 30 mg/kg twice daily, day 7, MC-38 tumour-bearing).
`CN1CCC[C@]1(C)/C=C/S(=O)(=O)NC(=O)Nc1c2c(cc3c1CCC3)CC=C2` has an AUC(0-24) of 697 µg·h/mL (human, plasma; oral, 100 mg twice daily of parent drug, day 1, metabolite of dosed drug).
The intact complex of `CC(=O)N([O-])CCCCCNC(=O)CCC(=O)N([O-])CCCCCNC(=O)CCC(=O)N([O-])CCCCCN.[89Zr+4]` is reported as 88.2 ± 3.5% (radio-TLC; aqueous buffer; 3 d, pH 7.2, 37 °C, 89Zr-labelled complex, with: FeCl3 10-fold excess).
For `CN(C)C(=O)c1ccnc(N2Cc3cn(Cc4cccc(C(F)(F)F)c4)nc3C2)n1`, the half-life was 2.25 h (metabolic stability; human, liver microsomes).
The recovery of `C=CC(=O)Nc1cc(Nc2nccc(-c3cn(C)c4ccccc34)n2)c(OC)cc1N(C)CCNC` is reported as 76.8% (storage stability; human dried blood spots; 24 h, on ice, medium QC level).
For `O=C(NS(=O)(=O)c1cccs1)c1cc2ccccc2n1Cc1ccc(Br)c2ccccc12`, the plasma concentration was 376 ng/mL (Sprague-Dawley rat, male, plasma; oral, 2 mg/kg, 2 h).
Under “hydrolysis activation energy”, `CCN(CC)c1ccc2c(c1)O[B-]1(c3ccccc3C#N)OC(=O)C(c3ccccc3)=N[N+]1=C2CC(C)C` (stereo not drawn) is recorded as 24.9 kcal/mol (UV/vis decay; aqueous buffer).
For `CN1CCC[C@]1(C)/C=C/S(=O)(=O)NC(=O)Nc1c2c(cc3c1CCC3O)CCC2` (stereo partly drawn), “AUC(0-24) accumulation ratio” read 1.4 (human, plasma; oral, 100 mg twice daily of parent drug, metabolite of dosed drug; reference: day 14 over day 1).
`N#Cc1ccnc(N2C(=O)CC[C@H]2C(=O)N(c2cc(F)cc(F)c2)[C@H](C(=O)NC2CC(F)(F)C2)c2ccccc2Cl)c1` (stereo in doubt) gave a bioavailability of 43% (cynomolgus monkey, plasma; oral, 10 mg/kg).
For `Cc1nc(N)nc2c1C(=O)N[C@@H](c1ccc(F)cc1-c1cccc(O[11CH3])n1)C2`, the tracer uptake was 14.7 ± 13.1 %ID (ex vivo biodistribution; healthy mice, bone; 60 min post-injection, baseline, vehicle pre-treatment).
`Cc1cccc(-c2ccc3nc(N)nn3c2)c1` has a metabolic turnover of 33% (human liver microsomes; 40 min).
With `CCOC(=O)C(CC)(CCCSCCCCCCN)NC(=O)c1ccc(C2CC2)c(Cc2ccc(F)cc2)n1` (stereo not drawn) the kinetic solubility was 0.3 µg/mL (≈ 0.538 µM) (aqueous buffer with DMSO).
`C#Cc1c(F)ccc2cc(O)cc(-c3ncc4c(N5CC6CCC(C5)N6C(=O)OC(C)OC(=O)CC[C@@H](C)[C@H]5CC[C@H]6[C@@H]7CC[C@@H]8C[C@H](O)CC[C@]8(C)[C@H]7C[C@H](O)[C@]56C)nc(OC[C@@]56CCCN5C[C@H](F)C6)nc4c3F)c12` (stereo partly drawn) gave a compound remaining of 105% (chemical stability; simulated intestinal fluid; 1 µM, 30 min).
`CN(CCNCc1ccncc1O)CCNCc1ccncc1O` — result for “protonation constant logK2H”: 8.7 (potentiometric titration; aqueous KCl solution; 1 mM, 25 °C, 0.1 M KCl).
For `CCCCN1C(=O)c2cccc3c(NCCCCCCCCN4CCOCC4)ccc(c23)C1=O`, the fluorescence lifetime was 4.1 ns (water; pH 6.0).
`C=C(NC(=O)c1csc(-c2nc3c(cc2O)-c2nc(cs2)C(=O)NC(C(C)O)C(=O)NC(=C(C)OC)c2nc(cs2)C(=O)NC2c4nc(cs4)C(=O)NC(COC(=O)c4c5c6c(cccc6n4O)COC(=O)C(OC4CC(C)(O)C(N(C)C)C(C)O4)C2OC5)c2nc-3cs2)n1)C(N)=O` (stereo not drawn) has an MRT(0-last) of 1.87 h (Sprague-Dawley rat, both sexes, plasma; intravenous infusion, 6 mg/kg, multiple doses, day 7).
`O=C(NCC1OC2CCC=CCCC2O1)c1ccc([18F])nc1` (stereo not drawn) gave a tissue uptake of 4.2 ± 0.4 %ID/g (healthy female BALB/c nude mice, spleen; intravenous, 7.4 MBq per mouse, 2 min).
For `O=C(Nc1cnccc1-c1ccc([18F])cc1)c1ccnc(NC(=O)C2CC2)c1`, the SUV was 0.08 (FVB/NJ mice (both sexes), hippocampus; intravenous, dose not given, 120 min).
`Cc1ncsc1-c1ccc(C(C)NC(=O)C2CC(O)CN2C(=O)C(NC(=O)CCCCCCCCCCN2CCCC(Nc3ncc(Cl)c(Nc4ccccc4S(=O)(=O)C(C)C)n3)C2)C(C)(C)C)cc1` (stereo not drawn) — result for “log2 fold change”: -1.55 (22Rv1; RNA-seq, refers to: SMCR8 mRNA; concentration not given; reference: DMSO).
`C=CC(=O)Nc1cccc(Cn2ncc3cnc(Nc4cnn(CCOC)c4)nc32)c1`: “percent of control” 88% (CHEK2 human; binding, KINOMEscan; 100 nM; lower = stronger binding).
For `O=C(Nc1cnccc1-c1ccc([18F])nc1)c1ccnc(NC(=O)C2CC2)c1`, the SUV was 0.362 (mice, transgenic, GSK-3β, early-stage, stomach; intravenous, dose not given, 120 min).
`Cc1nc(N)nc2c1C(=O)N[C@@H](c1ccc(F)cc1-c1cccc(OCC[18F])n1)C2` gave an SUV of 0.76 ± 0.05 (ex vivo biodistribution; C57BL/6 mouse, whole blood; intravenous, 1 MBq, 30 min, baseline, vehicle).
With `Cc1noc(C)c1Cn1cc(N2C(=O)CN(Cc3cccc(O[C@@H]4O[C@H](C(=O)O)[C@@H](O)[C@H](O)[C@H]4O)c3)C2=O)cn1` the plasma concentration was 5040 ng/mL (Sprague-Dawley rat, male; oral, 30 mg/kg of parent drug, 0.25 h).
The tracer uptake of `[123I]c1ccc2nc(-c3ccc(-n4ccnn4)nc3)cn2c1` is reported as 0.503 %ID/g (male Wistar rat, bone; intravenous, 4 MBq, 5 min).

A few entries again:
`C#Cc1c(F)ccc2cc(O)cc(-c3ncc4c(N5CC6CCC(C5)N6C(=O)OC(C)OC(=O)CC[C@@H](C)[C@H]5CC[C@H]6[C@@H]7CC[C@@H]8C[C@H](O)CC[C@]8(C)[C@H]7C[C@H](O)[C@]56C)nc(OC[C@@]56CCCN5C[C@H](F)C6)nc4c3F)c12` (stereo partly drawn) gave a compound remaining of 105% (chemical stability; simulated intestinal fluid; 1 µM, 30 min).
`Cc1ncsc1-c1ccc(C(C)NC(=O)C2CC(O)CN2C(=O)C(NC(=O)CCCCCCCCCCN2CCCC(Nc3ncc(Cl)c(Nc4ccccc4S(=O)(=O)C(C)C)n3)C2)C(C)(C)C)cc1` (stereo not drawn) — result for “log2 fold change”: -1.55 (22Rv1; RNA-seq, refers to: SMCR8 mRNA; concentration not given; reference: DMSO).
